{"data": "Results collected from several papers", "note": "Every numbered part comes from another study and shows a few of its results, in no order. Changes are numbered by the printed parent chain.", "sequence of UniProt Q9Y385 (whole entry, looked up)": "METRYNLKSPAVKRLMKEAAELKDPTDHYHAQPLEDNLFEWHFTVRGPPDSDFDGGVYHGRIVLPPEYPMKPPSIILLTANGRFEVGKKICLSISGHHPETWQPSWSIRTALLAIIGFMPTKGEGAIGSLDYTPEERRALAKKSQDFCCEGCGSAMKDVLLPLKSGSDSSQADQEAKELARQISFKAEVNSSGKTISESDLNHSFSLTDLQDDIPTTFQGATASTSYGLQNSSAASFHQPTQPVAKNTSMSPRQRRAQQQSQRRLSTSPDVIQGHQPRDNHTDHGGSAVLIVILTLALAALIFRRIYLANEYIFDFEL", "sequence of UniProt Q9NR09 (whole entry, looked up)": "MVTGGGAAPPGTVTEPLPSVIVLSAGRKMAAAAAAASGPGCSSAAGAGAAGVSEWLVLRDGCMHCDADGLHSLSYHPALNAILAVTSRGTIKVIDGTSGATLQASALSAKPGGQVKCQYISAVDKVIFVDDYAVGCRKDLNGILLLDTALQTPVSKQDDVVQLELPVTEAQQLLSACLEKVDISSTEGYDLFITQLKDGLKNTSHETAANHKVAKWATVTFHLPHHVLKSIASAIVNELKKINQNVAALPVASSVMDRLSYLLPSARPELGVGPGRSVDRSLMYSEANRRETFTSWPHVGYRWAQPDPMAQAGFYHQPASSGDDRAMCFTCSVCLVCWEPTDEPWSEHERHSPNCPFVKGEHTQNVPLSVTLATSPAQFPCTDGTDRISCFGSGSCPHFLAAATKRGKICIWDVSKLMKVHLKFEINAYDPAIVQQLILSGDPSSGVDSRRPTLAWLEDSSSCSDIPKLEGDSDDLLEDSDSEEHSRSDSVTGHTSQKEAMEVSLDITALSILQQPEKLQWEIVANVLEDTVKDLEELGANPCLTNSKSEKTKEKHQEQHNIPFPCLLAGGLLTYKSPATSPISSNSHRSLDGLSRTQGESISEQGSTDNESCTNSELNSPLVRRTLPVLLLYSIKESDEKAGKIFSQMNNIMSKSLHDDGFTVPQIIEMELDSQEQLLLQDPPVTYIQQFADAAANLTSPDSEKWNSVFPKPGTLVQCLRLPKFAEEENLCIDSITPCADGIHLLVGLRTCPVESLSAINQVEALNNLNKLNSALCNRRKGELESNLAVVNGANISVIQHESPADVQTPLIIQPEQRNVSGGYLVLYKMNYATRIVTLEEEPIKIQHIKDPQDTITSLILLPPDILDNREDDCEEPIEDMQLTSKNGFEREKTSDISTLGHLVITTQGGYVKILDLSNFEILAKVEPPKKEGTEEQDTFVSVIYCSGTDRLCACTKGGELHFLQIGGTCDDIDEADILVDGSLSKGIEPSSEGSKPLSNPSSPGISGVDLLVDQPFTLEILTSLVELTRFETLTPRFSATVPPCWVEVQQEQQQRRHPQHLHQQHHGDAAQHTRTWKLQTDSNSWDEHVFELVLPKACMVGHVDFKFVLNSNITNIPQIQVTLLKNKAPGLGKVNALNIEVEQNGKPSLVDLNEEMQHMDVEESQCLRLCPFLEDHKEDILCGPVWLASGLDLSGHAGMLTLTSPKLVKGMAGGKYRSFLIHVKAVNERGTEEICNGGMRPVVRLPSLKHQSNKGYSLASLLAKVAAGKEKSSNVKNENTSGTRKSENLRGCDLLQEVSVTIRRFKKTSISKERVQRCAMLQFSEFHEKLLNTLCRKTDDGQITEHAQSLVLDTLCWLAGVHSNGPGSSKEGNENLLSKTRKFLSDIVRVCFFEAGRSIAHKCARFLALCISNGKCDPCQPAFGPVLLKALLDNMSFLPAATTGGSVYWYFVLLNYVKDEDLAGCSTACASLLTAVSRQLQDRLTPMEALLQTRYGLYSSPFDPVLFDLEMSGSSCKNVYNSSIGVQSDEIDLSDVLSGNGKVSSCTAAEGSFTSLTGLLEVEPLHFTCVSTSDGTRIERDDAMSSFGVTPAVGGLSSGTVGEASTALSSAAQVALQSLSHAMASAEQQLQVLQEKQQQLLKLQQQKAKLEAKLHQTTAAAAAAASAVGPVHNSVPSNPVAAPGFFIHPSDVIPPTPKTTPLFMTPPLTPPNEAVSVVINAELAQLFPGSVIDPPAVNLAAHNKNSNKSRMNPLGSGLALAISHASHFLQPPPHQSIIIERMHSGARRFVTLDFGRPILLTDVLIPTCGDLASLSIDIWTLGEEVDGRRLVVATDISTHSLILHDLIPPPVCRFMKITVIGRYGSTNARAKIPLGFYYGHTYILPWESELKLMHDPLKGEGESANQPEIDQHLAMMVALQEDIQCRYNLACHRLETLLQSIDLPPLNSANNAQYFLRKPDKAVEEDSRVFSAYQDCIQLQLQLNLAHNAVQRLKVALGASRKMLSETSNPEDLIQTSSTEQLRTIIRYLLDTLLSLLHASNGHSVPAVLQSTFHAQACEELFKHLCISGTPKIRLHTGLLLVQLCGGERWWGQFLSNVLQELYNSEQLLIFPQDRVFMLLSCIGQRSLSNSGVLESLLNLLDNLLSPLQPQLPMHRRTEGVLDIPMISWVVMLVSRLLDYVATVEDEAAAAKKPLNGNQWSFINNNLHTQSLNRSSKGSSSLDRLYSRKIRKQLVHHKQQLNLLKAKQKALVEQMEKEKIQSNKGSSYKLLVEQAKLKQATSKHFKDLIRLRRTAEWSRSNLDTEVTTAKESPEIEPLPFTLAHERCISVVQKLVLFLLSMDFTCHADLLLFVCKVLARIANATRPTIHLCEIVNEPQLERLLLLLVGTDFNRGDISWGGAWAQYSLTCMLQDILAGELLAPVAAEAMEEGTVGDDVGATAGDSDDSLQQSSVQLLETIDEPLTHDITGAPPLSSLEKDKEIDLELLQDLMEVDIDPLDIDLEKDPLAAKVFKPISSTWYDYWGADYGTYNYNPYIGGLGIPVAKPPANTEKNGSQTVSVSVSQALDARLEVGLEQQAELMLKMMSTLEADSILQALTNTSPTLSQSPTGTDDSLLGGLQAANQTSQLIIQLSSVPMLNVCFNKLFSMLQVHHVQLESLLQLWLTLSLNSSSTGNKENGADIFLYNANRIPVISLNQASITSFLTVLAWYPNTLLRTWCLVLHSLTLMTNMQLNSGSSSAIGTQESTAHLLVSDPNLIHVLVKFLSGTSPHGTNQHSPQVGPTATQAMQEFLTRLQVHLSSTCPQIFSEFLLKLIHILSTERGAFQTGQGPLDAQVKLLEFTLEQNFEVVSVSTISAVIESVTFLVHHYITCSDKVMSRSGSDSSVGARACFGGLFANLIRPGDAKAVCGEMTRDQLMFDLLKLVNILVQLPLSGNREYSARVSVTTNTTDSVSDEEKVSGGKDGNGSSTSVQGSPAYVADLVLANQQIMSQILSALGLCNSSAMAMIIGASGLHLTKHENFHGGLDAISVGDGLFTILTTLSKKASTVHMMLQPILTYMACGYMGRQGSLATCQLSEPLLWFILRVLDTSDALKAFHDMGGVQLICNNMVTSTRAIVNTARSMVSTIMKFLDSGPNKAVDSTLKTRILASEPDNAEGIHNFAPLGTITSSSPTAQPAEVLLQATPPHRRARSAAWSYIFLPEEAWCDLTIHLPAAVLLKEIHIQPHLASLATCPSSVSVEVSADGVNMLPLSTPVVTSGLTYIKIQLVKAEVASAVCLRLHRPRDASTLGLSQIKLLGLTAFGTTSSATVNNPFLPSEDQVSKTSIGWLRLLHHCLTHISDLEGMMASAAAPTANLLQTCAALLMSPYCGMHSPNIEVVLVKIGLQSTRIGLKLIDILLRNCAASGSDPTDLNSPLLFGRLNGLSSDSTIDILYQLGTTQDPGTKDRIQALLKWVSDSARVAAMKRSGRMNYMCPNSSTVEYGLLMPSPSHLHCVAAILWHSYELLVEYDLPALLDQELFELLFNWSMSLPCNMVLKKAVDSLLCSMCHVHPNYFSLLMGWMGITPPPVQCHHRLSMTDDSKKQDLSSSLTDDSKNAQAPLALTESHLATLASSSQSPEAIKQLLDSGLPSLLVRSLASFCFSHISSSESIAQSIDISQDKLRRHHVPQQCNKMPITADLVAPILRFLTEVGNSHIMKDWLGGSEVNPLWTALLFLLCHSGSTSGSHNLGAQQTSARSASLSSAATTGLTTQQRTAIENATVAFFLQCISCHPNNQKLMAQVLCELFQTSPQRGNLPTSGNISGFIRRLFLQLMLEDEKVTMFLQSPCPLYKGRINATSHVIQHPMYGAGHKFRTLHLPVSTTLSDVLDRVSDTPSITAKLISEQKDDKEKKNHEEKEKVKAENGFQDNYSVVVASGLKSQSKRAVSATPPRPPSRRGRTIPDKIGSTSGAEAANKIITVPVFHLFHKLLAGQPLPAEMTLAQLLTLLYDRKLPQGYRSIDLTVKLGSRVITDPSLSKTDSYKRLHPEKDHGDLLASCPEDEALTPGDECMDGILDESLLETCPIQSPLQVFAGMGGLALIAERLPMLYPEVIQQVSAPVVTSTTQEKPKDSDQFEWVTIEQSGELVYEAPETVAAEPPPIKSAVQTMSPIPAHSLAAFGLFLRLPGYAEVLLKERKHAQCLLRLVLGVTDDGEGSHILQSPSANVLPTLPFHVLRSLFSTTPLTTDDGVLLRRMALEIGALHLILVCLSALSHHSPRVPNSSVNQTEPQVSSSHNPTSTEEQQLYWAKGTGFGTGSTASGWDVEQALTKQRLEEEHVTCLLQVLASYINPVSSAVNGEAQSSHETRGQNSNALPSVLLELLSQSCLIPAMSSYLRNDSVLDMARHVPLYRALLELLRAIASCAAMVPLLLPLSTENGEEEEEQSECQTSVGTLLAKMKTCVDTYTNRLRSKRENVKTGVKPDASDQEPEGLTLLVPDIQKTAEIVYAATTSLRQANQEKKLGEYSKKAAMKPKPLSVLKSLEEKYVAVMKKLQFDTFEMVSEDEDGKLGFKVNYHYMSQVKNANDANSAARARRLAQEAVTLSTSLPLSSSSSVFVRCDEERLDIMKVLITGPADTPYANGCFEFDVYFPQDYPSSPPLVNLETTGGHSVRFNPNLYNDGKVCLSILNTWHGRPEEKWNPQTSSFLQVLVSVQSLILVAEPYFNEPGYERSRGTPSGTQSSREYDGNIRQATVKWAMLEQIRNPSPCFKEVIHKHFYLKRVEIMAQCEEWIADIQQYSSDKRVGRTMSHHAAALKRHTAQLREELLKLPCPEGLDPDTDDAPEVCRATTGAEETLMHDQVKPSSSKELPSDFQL"}
{"data": "Block 1", "Molecule": "ALDRLEKLLRCSRCTNILREPVCLGGCEHIFCSNCVSDCIGTGCPVCYTPAWIQDLKI (BARD1 RING domain (UniProt Q99728))", "method": "yeast two-hybrid", "medium": "yeast", "setting": "mostly zero background", "reference": "not given", "reading": "higher = stronger interaction"}
{"target": "UBE2C UBC core domain (UniProt O00762)", "lacZ reporter activity": 0}
{"target": "UBE2I UBC core domain (UniProt P63279)", "lacZ reporter activity": 0}
{"target": "UBE2S UBC core domain (UniProt Q16763)", "lacZ reporter activity": 0}
{"target": "UBE2Z UBC core domain (UniProt Q9H832)", "lacZ reporter activity": 0}
{"target": "UBE2O UBC core domain (UniProt Q9C0C9)", "lacZ reporter activity": 0}
{"target": "UBE2J1 UBC core domain (UniProt Q9Y385)", "lacZ reporter activity": 0}
{"target": "BIRC6 UBC core domain (UniProt Q9NR09)", "lacZ reporter activity": 0}
{"target": "UBE2B UBC core domain (UniProt P63146)", "lacZ reporter activity": 0}
{"target": "UBE2J2 UBC core domain (UniProt Q8N2K1)", "lacZ reporter activity": 0}
{"data": "Block 2", "target": "CCND1, cyclin fold, Cln2 fusion (human)", "method": "yeast growth competition, sequencing", "medium": "yeast", "setting": "weak parent motif", "reference": "not given", "reading": "higher = stronger binding", "starting sequence": "BORA docking peptide (human); SSLRRKLFLDGNG; partner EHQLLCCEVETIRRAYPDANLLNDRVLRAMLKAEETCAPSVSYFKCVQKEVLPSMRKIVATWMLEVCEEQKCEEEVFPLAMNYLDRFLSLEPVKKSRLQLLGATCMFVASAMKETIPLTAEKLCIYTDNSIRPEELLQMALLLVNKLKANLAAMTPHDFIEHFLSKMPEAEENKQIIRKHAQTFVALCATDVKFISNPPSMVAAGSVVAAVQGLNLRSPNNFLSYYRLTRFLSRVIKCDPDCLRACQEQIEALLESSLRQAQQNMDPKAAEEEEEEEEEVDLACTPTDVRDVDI"}
{"Substitution": "K6A", "normalised enrichment score": 0.148}
{"Substitution": "L7A", "normalised enrichment score": -0.495}
{"Substitution": "R5K F8L", "normalised enrichment score": 0.0986}
{"Substitution": "G13A", "normalised enrichment score": 0.1}
{"Substitution": "F8A", "normalised enrichment score": 0.157}
{"Substitution": "R5A", "normalised enrichment score": 0.0529}
{"Substitution": "S1A", "normalised enrichment score": 0.155}
{"Substitution": "F8L", "normalised enrichment score": 0.241}
{"data": "Block 3", "target": "Histone acetyltransferase KAT6A, both winged helices, GST fusion (KAT6A, Homo sapiens, UniProt Q92794, residues 1-181)", "method": "protein binding microarray", "form": "double-stranded DNA, one strand shown", "medium": "in vitro", "tested at": "not given", "setting": "8-mer, flanks averaged, mean of 2 arrays, mostly near background", "reference": "not given", "reading": "higher = stronger binding", "Target sequence (chain)": "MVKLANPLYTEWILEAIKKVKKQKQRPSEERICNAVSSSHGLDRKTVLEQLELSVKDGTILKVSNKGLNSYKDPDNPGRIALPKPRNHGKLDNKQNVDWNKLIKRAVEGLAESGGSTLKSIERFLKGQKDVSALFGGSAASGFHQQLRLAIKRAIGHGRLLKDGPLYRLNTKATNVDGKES"}
{"Strand": "GCAGAGAA", "E-score": 0.105}
{"Strand": "AGTTCTCG", "E-score": -0.0962}
{"Strand": "CGACGCAA", "E-score": 0.232}
{"Strand": "GTGCGAAA", "E-score": -0.0362}
{"Strand": "TCGAGAGA", "E-score": -0.0629}
{"Strand": "TCCCCAAA", "E-score": -0.252}
{"Strand": "GCTACTCA", "E-score": -0.176}
{"Strand": "ACCAAACA", "E-score": 0.0563}
{"Strand": "TATACGGA", "E-score": 0.157}
{"Strand": "ACGGGGCG", "E-score": 0.17}
{"Strand": "ATACAGTC", "E-score": -0.137}
{"Strand": "GATTACGC", "E-score": 0.142}
{"Strand": "AGCTACCT", "E-score": 0.008}
{"Strand": "CGCTTATC", "E-score": 0.144}
{"Strand": "CTTATCTA", "E-score": -0.05}
{"Strand": "ATTATCAA", "E-score": -0.0758}
{"Strand": "AGGGGTAA", "E-score": -0.309}
{"Strand": "AGAATTAT", "E-score": -0.024}
{"Strand": "TGACAACA", "E-score": -0.0864}
{"data": "Block 4", "target": "Fragile X messenger ribonucleoprotein 1, C-terminal low-complexity region (Fmr1, Mus musculus, UniProt P35922)", "method": "RNA Bind-n-Seq", "form": "RNA", "medium": "in vitro", "tested at": "200 nM", "setting": "whole 134-nt RNA, ends assumed", "added": "150 mM LiCl", "reference": "input library", "reading": "higher = stronger binding", "all molecules": "7-deaza-guanosine replaces G"}
{"Strand": "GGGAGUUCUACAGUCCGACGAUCCAAGUCCUGUGCUACACAUCGUAUGUACCGAAUCGGAAAAAGGAAAAAAAGGAGGAAAGUAUUAUGUUACGCCGUUCGGAUCUGCACUUCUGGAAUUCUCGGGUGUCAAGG", "log2 enrichment": -0.882}
{"Strand": "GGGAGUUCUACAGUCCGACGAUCCUGUGCUACACAUCGUAUGUACCGAAUCAAACCCCCCCAAAUUUUUUUAAAUUUUUUUAAAAAAGUAUUAUGUUACGCCGUUCGGAUCUGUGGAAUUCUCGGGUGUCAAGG", "log2 enrichment": 1.31}
{"Strand": "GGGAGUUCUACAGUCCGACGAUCUGUGAGAUUAAACUUGCCCCCAAACGAUCUCGUUUGGAGACUAGAGCUGGAGAAGAAGAUGAAGGAGAAGAGGAUUCUGAUUCUGAUUAUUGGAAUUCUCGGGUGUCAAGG", "log2 enrichment": -1.47}
{"Strand": "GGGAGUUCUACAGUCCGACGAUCUCCUGUGCUACACAUCGUAUGUACCGAAUCGGGGAAAGGGGAAAGGGGAAAAAAAGGGGAAAGUAUUAUGUUACGCCGUUCGGAUCUGCAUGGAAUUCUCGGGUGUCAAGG", "log2 enrichment": 0.488}
{"Strand": "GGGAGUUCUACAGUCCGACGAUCGCAGGAAGUAAAAACAAAUGGAAAUGCUUCGGAUAGUGGCAGGGGUGGGGGUUGCUAAGGAAAGGGUGGGAUGGGAGUGAAAAAAGAGUUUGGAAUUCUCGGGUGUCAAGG", "log2 enrichment": 1.36}
{"Strand": "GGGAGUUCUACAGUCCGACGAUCUGGCCCUGGUGGCAUGCGGGGAGGAAGAGGUGGCCUCAUGGAUCGUGGUGGUCCCGGUGGAAUGUUCAGAGGUGGCCGUGGUGGACACAGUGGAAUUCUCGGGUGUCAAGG", "log2 enrichment": -0.829}
{"Strand": "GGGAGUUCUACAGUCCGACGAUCUCAAGUCCUGUGCUACACAUCGUAUGUACCGAAUCGGGAAGGGGAAGGGGAAGGAAAGUAUUAUGUUACGCCGUUCGGAUCUGCACUUCCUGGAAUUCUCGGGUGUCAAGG", "log2 enrichment": -1.38}
{"Strand": "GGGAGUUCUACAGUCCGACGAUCUCCUGUGCUACACAUCGUAUGUACCGAAUCGGCCCCCCGGGGCCCCCCGGCCCCCCGGGGAAAGUAUUAUGUUACGCCGUUCGGAUCUGCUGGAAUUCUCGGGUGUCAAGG", "log2 enrichment": -2.61}
{"Strand": "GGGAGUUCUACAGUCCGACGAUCUCAAGUCCUGUGCUACACAUCGUAUGUACCGAAUCGGUGGAAAAAGGAAAAAGGAAAGUAUUAUGUUACGCCGUUCGGAUCUGCACUUCCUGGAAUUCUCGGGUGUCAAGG", "log2 enrichment": -1.13}
{"Strand": "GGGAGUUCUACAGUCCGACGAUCGCAGGAAGUAAAAACAAAUGGAAAUGCUUCGGAUAGUGGCAGGGGUCGGGGUUGCUAAGGAAAGGGUGGGAUGGGAGUGGGUAAAGAGUUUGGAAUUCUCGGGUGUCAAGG", "log2 enrichment": 1.48}
{"Strand": "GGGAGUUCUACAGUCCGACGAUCAGUCCUGUGCUACACAUCGUAUGUACCGAAUCGGGGUUUUGGGGUUUUGGUUUUGGGGAAAGUAUUAUGUUACGCCGUUCGGAUCUGCACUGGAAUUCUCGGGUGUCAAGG", "log2 enrichment": -1.57}
{"data": "Block 5", "target": "RNA binding protein fox-1 homolog 2, RRM domain, GST-SBP tag (RBFOX2, Homo sapiens, UniProt O43251-10, residues 100-194)", "method": "RNA Bind-n-Seq", "form": "RNA", "medium": "in vitro", "tested at": "365 nM", "setting": "natural RNA segment, single round, ends assumed", "reference": "no-protein control", "reading": "higher = stronger binding"}
{"Strand": "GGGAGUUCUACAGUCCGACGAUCUAAGUUUUAAAUAAAGUCAUGAUCAGUGUGCAUUUGUGAUUACAUGUGUACUCAUUCUUUUCCCAAGCUGACGAGGUCUCUCCCGAGUGGCGCUUCGAAAGGCGUGCAUGUGGAAUUCUCGGGUGCCAA", "RBNS enrichment (R)": 3.67}
{"Strand": "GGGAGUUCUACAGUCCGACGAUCGCCUGUGUCGCAGCAGCCCAGCAUCAAGCAUGUCACACACUGCCCUGCCACAGCCACCUCCCUCCCUGGCCAUCCCAGAGCCGAGGCUCCCACUGUCCUCAGAGAGCCUGUGGAAUUCUCGGGUGCCAA", "RBNS enrichment (R)": 1.16}
{"Strand": "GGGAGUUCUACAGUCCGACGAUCUUCAUCUCAAGUGUAUUGCAGUAAUGGCUGAAUCGGGGUUAACAUCCCUUCCAGGCACAGCGAGUUGGUUCUGCUUUUUGCCUGUAAGCCAAAGAAAAGCCACAUCUAAAUGGAAUUCUCGGGUGCCAA", "RBNS enrichment (R)": 0.504}
{"Strand": "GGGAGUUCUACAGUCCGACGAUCGAUCCUGGCAUCUAUUUAUGCAACUAAAUACUUUUCAGAAAUGGUAUAUAAAAGGCUACAGUUUAAUAUCUGUAUUUUUAUAAAAGUAUGAUGAAGGGUUUGGGGUGUUUUGGAAUUCUCGGGUGCCAA", "RBNS enrichment (R)": 0.711}
{"Strand": "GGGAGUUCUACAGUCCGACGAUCAGAUUGCUAGGUAGAUAGACACACACACAUGCACACACACACAUCUGGAGAUGGCAAAAUCCUCUAAAAUGUCGAGGUCUCUUGAAGACUUGAGAAGCUGUCACAAGGUCUGGAAUUCUCGGGUGCCAA", "RBNS enrichment (R)": 1.52}
{"Strand": "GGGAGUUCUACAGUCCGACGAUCUUAACUCUUCAGUAGAGGUUUACAAAGAGUACAAAGGUUAAAUUACAAAUUCAUUCCCAGCCUAGGCUCUGGGCACAUUUCCUGUUCUUGAAUUCUGCUCCUGAAGAGGGUGGAAUUCUCGGGUGCCAA", "RBNS enrichment (R)": 0.471}
{"Strand": "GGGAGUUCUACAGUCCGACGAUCCUGGAAAGACAUCUCCAAGGUGAGGUCCACCCCCACAGCAGACCUCAAGUAGAAAUUGCCCAAUUUUUACCAGCUGGAGGGACACCCUUGGGUUUUUGUACGAAGCUAUUUGGAAUUCUCGGGUGCCAA", "RBNS enrichment (R)": 0.427}
{"Strand": "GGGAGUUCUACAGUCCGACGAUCUUAUAGUUGCCUUUCUAACUACUUAGCACAGUUUGAGAAUACGUUAAUUGCUAUUUACUAUUUAAAAAGUUUUACUGAAAUCAGUCCAUAACAUUAAGAUGAGCCCUAAUUGGAAUUCUCGGGUGCCAA", "RBNS enrichment (R)": 0.403}
{"Strand": "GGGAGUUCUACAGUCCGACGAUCUUAAGGGAUUGGCUCGCUGAGUUCUAAGCUCUAAAUGGGUCAACUCCUUUGUUUUCCGCCUAGCGACAAGGGAUUUGCUCGCACGGCAUUGGCUCCAUCCCCUAGUCGCUUGGAAUUCUCGGGUGCCAA", "RBNS enrichment (R)": 1.82}
{"Strand": "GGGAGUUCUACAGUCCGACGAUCUGAGGAACCUGUAUUCCUCUUCUUCGUGAUAAUAUAAUCUCUAUUUUUUUAGGAAAACAAAAAUGAAAAACUACUCCAUUUGAGGAUUGUAAUUCCCACCCCUCUUGCUUUGGAAUUCUCGGGUGCCAA", "RBNS enrichment (R)": 0.393}
{"Strand": "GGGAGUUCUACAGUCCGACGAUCGUGGCUUUUUAAUUAACUUGUCUUUCAUUGCACUUCACUCUGCCUGUUUUCAAGGGGAGUAAGAUUGGUAACAUUUGGGGAGACUGUAUCUGUCUACUUAGCGUGGCUGUUGGAAUUCUCGGGUGCCAA", "RBNS enrichment (R)": 1.2}
{"Strand": "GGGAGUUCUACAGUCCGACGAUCUUCUGGUUAGCUCAGCCCCAGCCCAGCCCAGCUGCUCUGCCCAGAGCUGGGUGAGUGGGGAGACACCUCAGAGCCCCGCAAAACCCACUGACCGGAGGCAAAAGGCAGUGUGGAAUUCUCGGGUGCCAA", "RBNS enrichment (R)": 0.908}
{"note": "A few entries again (block 3):"}
{"Strand": "GTGCGAAA", "E-score": -0.0362}
{"Strand": "TCGAGAGA", "E-score": -0.0629}
{"Strand": "TCCCCAAA", "E-score": -0.252}
{"Strand": "GCTACTCA", "E-score": -0.176}
{"Strand": "ACCAAACA", "E-score": 0.0563}
